Experimental data of several laboratories.
Numbered parts are unrelated; each lists some results of a single study. Changes are numbered by the printed parent chain.

Series 1
Target: CCNE1, cyclin fold, Cln2 fusion (human)
Technique: yeast growth competition, sequencing
Medium: yeast
Setting: strong parent motif
Reference: not given
Reading: higher = stronger binding
Starting sequence: BRCA2 docking peptide (human); PSIKRNLLNEFDR; partner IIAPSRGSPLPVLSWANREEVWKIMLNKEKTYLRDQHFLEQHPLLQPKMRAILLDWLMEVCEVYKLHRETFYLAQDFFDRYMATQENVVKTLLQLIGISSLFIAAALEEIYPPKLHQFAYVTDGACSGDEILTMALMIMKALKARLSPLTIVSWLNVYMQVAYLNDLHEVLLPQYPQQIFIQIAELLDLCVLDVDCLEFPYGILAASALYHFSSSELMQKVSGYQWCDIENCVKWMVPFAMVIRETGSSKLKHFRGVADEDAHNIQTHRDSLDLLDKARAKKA
Under “normalised enrichment score”, `R13F` is recorded as 2.73.
`L7I` — result for “normalised enrichment score”: 1.28.
For `N6E`, “normalised enrichment score” read 0.604.

Series 2
Target: Ras GTPase-activating protein-binding protein 1, RRM domain (G3BP1, Homo sapiens, UniProt Q13283)
Chain of UniProt Q13283 (whole entry, looked up): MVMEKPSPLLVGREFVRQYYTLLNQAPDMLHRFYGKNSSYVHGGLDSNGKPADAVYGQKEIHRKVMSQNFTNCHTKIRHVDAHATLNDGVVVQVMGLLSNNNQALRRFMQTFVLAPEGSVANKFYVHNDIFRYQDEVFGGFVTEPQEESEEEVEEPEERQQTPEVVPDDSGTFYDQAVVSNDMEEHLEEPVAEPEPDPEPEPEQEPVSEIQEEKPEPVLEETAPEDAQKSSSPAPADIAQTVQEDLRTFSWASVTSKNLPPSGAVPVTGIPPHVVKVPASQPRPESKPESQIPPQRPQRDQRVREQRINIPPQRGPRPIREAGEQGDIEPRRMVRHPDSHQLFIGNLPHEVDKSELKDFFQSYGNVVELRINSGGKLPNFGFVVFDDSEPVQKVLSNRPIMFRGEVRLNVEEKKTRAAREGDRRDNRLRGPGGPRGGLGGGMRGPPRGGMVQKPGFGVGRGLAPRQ
Technique: RNA Bind-n-Seq
Form: RNA
Medium: in vitro
Concentration: 1 µM
Setting: whole 134-nt RNA, ends assumed
Added: 150 mM KCl
Reference: input library
Reading: higher = stronger binding
The log2 enrichment of `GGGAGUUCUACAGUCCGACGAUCAGUCCUGUGCUACACAUCGUAUGUACCGAAUCGGUUUUUGGUUUUUUUGGAAAAAGGAAAGUAUUAUGUUACGCCGUUCGGAUCUGCACUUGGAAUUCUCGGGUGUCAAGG` is reported as -0.139.
For `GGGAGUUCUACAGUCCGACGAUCCAAGUCCUGUGCUACACAUCGUAUGUACCGAAUCGGGAAAAGGAAAAGGAAAAGGGAAAGUAUUAUGUUACGCCGUUCGGAUCUGCACUUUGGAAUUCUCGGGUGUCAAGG`, the log2 enrichment was -0.216.
`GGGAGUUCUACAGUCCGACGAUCCUCAAGUCCUGUGCUACACAUCGUAUGUACCGAAUCGGGCCGGGCCGGCCGGGAAAGUAUUAUGUUACGCCGUUCGGAUCUGCACUUCCAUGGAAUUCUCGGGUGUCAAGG` gave a log2 enrichment of -0.409.
For `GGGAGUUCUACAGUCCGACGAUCCCUCAAGUCCUGUGCUACACAUCGUAUGUACCGAAUCGGGGUGGGUGGGGUGGAAAGUAUUAUGUUACGCCGUUCGGAUCUGCACUUCCAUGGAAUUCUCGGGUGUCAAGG`, the log2 enrichment was 0.113.
With `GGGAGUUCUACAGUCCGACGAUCGUCCUGUGCUACACAUCGUAUGUACCGAAUCGGGAAAGGGAAAAAAAGGGAAAAAGGGAAAGUAUUAUGUUACGCCGUUCGGAUCUGCACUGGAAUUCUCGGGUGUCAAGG` the log2 enrichment was 0.328.
The log2 enrichment of `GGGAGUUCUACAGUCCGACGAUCUCAAGUCCUGUGCUACACAUCGUAUGUACCGAAUCGGGGAAGGAAGGGAAGGGGAAAGUAUUAUGUUACGCCGUUCGGAUCUGCACUUCCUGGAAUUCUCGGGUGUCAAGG` is reported as 0.0538.

Series 3
Target: Prothrombin, mature alpha-thrombin (F2, Homo sapiens, UniProt P00734)
Technique: aptamer microarray, sandwich
Form: DNA with 2'F-ANA
Medium: in vitro
Concentration: 200 nM
Setting: whole 15-mer aptamer, many near background
Added: Cy3 exosite-II aptamer, 400 nM
Reading: higher = stronger binding
Under “mean fluorescence intensity”, `GGTTGGTGTGGTTGG (2'F-ANA at 6 8 9 10 11 12 13)` is recorded as 166 a.u.
Under “mean fluorescence intensity”, `GGTTGGTGTGGTTGG (2'F-ANA at 4 6 11 12)` is recorded as 372 a.u.
Under “mean fluorescence intensity”, `GGTTGGTGTGGTTGG (2'F-ANA at 1 2 3 6 7 9 10 13 14 15)` is recorded as 58.4 a.u.
Under “mean fluorescence intensity”, `GGTTGGTGTGGTTGG (2'F-ANA at 1 3 5 6 9 10 11 14 15)` is recorded as 59.3 a.u.

Other studies, line by line
For `PhoQ, residues 284 288 289 292 302 303 NLALSC`, the fold induction was 1.11 (PhoP, residues 12 14 15 18 19 LWHCS (Escherichia coli, UniProt P23836); Sort-seq, item: YFP reporter; E. coli; PhoQ-PhoP variant library, added: 10 µM Mg2+; reference: high Mg2+ state, higher = stronger signaling).
